Experimental data collected from several papers.
Protocols differ between the studies behind these lines. ± gives the spread as reported.
PPO3: PPO3 (Agaricus bisporus, UniProt C7FF04)
Sequence of UniProt C7FF04 (whole entry, looked up): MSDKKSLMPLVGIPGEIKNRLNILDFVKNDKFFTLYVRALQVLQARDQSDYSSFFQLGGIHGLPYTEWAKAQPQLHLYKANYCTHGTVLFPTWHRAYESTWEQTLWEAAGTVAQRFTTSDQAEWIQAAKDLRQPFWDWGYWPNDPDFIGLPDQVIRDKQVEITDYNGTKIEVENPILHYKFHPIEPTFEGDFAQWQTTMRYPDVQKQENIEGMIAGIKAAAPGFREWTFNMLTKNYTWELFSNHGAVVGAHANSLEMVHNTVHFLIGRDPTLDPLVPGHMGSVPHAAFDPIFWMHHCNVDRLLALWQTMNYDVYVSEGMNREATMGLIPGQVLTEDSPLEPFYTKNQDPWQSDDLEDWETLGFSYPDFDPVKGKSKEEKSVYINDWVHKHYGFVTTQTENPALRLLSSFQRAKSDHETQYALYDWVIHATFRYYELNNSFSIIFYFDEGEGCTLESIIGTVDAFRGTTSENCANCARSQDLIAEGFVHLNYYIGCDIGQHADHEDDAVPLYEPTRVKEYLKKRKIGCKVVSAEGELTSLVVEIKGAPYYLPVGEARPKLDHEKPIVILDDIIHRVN
T1: dsDNA; GCGCGAATTCGCGC
Sequence of UniProt P20236 (whole entry, looked up): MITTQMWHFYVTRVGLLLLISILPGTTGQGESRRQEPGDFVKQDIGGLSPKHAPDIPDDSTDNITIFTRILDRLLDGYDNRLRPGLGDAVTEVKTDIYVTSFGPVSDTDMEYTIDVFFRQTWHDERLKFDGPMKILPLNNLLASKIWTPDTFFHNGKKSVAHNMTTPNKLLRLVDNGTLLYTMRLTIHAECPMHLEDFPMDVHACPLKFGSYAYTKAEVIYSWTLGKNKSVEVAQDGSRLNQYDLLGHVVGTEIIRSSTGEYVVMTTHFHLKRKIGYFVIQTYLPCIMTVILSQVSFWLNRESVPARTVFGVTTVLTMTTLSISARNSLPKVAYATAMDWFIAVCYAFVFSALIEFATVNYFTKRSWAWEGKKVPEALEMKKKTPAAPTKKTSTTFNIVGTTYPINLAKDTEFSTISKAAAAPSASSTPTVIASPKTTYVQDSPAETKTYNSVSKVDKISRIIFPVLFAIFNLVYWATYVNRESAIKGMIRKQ
Sequence of UniProt O88275 (whole entry, looked up): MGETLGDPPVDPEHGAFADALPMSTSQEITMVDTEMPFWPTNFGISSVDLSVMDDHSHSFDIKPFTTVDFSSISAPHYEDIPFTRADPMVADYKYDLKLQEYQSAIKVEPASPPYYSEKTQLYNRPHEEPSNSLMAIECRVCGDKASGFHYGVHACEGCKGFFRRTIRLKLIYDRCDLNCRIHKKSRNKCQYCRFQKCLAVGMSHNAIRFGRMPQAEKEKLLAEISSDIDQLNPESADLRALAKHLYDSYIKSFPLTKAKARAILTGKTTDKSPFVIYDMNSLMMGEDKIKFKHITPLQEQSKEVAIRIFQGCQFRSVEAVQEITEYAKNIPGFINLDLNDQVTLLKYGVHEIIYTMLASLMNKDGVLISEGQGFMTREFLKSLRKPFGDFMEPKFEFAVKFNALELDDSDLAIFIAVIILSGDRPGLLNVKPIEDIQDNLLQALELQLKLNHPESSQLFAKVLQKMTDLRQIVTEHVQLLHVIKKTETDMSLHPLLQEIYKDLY
Sequence of UniProt P63138 (whole entry, looked up): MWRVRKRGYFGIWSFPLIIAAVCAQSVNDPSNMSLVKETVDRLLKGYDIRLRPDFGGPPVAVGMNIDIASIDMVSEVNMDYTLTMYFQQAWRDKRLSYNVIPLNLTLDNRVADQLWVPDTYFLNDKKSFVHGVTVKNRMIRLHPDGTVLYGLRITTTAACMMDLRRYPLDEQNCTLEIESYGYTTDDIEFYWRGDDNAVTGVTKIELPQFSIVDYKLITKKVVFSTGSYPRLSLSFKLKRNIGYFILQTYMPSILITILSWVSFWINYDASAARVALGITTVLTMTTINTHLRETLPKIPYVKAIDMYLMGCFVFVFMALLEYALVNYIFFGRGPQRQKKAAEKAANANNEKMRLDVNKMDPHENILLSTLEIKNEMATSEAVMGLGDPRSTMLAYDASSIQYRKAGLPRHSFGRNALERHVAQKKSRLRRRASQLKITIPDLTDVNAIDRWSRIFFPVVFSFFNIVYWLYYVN
Sequence of UniProt P32239 (whole entry, looked up): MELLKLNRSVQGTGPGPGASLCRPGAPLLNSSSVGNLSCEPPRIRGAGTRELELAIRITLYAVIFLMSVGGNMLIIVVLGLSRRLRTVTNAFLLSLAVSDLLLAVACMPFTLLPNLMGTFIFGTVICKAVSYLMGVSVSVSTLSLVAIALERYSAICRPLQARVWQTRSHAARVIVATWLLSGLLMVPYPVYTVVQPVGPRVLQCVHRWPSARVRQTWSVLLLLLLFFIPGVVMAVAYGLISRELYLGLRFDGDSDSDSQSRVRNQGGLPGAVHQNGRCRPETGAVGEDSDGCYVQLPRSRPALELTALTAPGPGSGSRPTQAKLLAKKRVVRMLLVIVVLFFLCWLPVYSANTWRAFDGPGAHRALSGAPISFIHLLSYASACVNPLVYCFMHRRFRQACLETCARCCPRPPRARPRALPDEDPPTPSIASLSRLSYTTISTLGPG
Sequence of UniProt P16257 (whole entry, looked up): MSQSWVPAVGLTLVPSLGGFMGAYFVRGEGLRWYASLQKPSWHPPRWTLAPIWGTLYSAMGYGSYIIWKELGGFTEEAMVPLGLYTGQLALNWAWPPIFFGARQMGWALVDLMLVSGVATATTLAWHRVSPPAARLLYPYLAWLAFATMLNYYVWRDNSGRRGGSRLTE
Sequence of UniProt Q6UWW8 (whole entry, looked up): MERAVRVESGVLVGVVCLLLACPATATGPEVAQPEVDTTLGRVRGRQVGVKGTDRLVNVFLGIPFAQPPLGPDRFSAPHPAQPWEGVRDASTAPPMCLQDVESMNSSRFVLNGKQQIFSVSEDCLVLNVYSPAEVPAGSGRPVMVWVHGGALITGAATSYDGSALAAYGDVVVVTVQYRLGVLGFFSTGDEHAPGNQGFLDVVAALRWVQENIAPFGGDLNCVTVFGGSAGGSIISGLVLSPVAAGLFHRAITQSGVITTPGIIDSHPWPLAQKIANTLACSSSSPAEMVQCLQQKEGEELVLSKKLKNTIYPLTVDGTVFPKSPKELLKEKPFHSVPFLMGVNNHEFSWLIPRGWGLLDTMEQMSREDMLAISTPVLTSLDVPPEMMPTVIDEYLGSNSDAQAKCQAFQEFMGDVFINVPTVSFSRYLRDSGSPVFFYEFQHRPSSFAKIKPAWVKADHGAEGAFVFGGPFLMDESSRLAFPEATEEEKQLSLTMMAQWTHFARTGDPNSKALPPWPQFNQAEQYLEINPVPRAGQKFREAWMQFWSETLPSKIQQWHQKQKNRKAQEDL
Sequence of UniProt P39748 (whole entry, unmodified, looked up): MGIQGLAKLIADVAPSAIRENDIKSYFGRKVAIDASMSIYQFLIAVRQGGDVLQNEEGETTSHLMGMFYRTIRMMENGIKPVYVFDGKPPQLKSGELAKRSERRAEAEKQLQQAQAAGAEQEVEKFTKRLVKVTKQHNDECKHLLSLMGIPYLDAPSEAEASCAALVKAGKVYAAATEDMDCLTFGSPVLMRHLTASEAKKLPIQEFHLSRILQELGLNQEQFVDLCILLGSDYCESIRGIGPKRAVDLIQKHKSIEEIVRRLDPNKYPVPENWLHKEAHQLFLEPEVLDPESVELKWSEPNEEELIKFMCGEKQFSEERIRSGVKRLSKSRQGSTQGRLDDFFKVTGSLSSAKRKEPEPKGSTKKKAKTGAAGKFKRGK

CC(C)CN(CC(C)C)C(=O)/C=C/C=C/c1ccc2c(c1)OCO2 — Hill coefficient of GABA curve (Gabra3/Gabrb2 (Rattus norvegicus, UniProt P20236+P63138); two-electrode voltage clamp; Xenopus oocytes; 100 µM): 1.1 ± 0.1
Nc1ncnc2c1ncn2C1OC(COP(=O)(O)OP(=O)(O)OCC2OC(O)C(O)C2O)C(O)C1O (stereo not shown) — maximal open probability (TRPM2 (Nematostella vectensis, UniProt A7T1N0, Y264A); activator, inside-out patch clamp; Nematostella vectensis TRPM2 Y264A; upper estimate, no added PIP2, with: 125 µM Ca2+): ~0.038
C[C@H](NC(=O)[C@H](Cc1ccc(O)cc1)NC(=O)[C@H](Cc1ccc(O)cc1)NC(=O)[C@H](CCC(=O)O)NC(=O)[C@H](CCCCN)NC(=O)[C@H](CCC(N)=O)NC(=O)[C@H](CO)NC(=O)[C@H](CO)NS(=O)(=O)c1cccc2c(N(C)C)cccc12)C(=O)O — binding free energy (Rho guanine nucleotide exchange factor TIAM1, PDZ domain (TIAM1, Homo sapiens, UniProt Q13009); fluorescence anisotropy; 25 °C): -5.35 ± 0.05 kcal/mol
CC(=O)Nc1ccc(O)c(SC[C@H](NC(=O)CC[C@H](N)C(=O)O)C(=O)NCC(=O)O)c1 — IC50 (ABCC4 (Homo sapiens, UniProt O15439); LTC4 transport, inhibitor; inside-out membrane vesicles; with: LTC4): > 300 µM
COc1cncc(-c2cc(F)cc(CNC(=O)c3cc(N4CC[C@@](C#N)(C5CC5)C4=O)cc(C)n3)c2)c1 — melting temperature (Proline--tRNA ligase (Plasmodium falciparum, UniProt Q8I5R7); thermal shift; with: L-proline 2 mM): 78.4 °C
CCc1nc2cc3ccccc3cc2cc1C(=O)N1CCC[C@H]1C(=O)N[C@@H](CCC/C=C/CCC[C@H](NC(=O)[C@@H]1CCCN1C(=O)c1cc2cc3ccccc3cc2nc1CC)C(=O)N[C@@H](CCCCN)C(=O)NCCCN)C(=O)N[C@@H](CCCCN)C(=O)NCCCN — residence time ((CAG)10 RNA; SPR): 56 s
COc1ccc(Cn2c(=O)n(O)c(=O)c3ccccc32)cc1 — kcat (Flap endonuclease 1 (Homo sapiens, UniProt P39748); inhibitor; with: double-flap substrate DF1): 194 ± 11 min⁻¹
CC(C)C[C@H](NC(=O)[C@H](CCC(=O)O)NC(=O)[C@@H](N)CS)C(=O)N[C@@H](CC(N)=O)C(=O)O — remaining activity (PPO3; enzyme activity, inhibitor; 100 µM): 72.8%
CCCC[C@H](NC(=O)CNC(=O)[C@@H]1CCCN1C(=O)CNC(=O)[C@@H]1CCCN1C(=O)CNC(=O)[C@@H]1CCCN1C(=O)[C@H](Cc1c[nH]c2ccccc12)NC(=O)[C@H](CCCNC(=N)N)NC(=O)[C@@H](Cc1ccccc1)NC(=O)[C@H](Cc1c[nH]cn1)NC(=O)[C@H](CCC(=O)O)NC(=O)[C@H](CCCC)NC(=O)[C@H](CO)NC(C)=O)C(=O)NCC(=O)N[C@@H](Cc1c[nH]c2ccccc12)C(=O)N[C@@H](CCCC)C(=O)N[C@@H](CC(=O)O)C(=O)N[C@@H](Cc1ccccc1)C(N)=O — IC50 ratio (CCKBR/MC4R (Homo sapiens, UniProt P32239+P32245); bivalent binding; cells expressing CCK2R and MC4R; with: Eu-DTPA-CCK-8; relative to: single- over dual-expressing cells): 8 fold
CC[C@H](C)[C@H](NC(=O)[C@H](Cc1ccc(O)cc1)NC(=O)[C@@H](NC(=O)[C@H](CCCNC(=N)N)NC(=O)[C@@H](N)CC(=O)O)C(C)C)C(=O)N[C@@H](Cc1c[nH]cn1)C(=O)N1CCC[C@H]1C(=O)O — Km (angiotensin peptidase; substrate; BMX sheep CSF): 12.3 µM
CCCCCCCCC(=O)Nc1ccc(OC)nc1C — specific activity (Carboxylesterase 3 (CES3, Homo sapiens, UniProt Q6UWW8); substrate; 50 µM, pH 8, 37 °C, enzyme purity 3%): 8.5 pmol/min/µg
Nc1ncnc2c1ncn2[C@@H]1O[C@H](CO)[C@@H](O[C@H]2O[C@H](CO)[C@@H](OP(=O)(O)O)[C@H](OP(=O)(O)O)[C@H]2O)[C@H]1O — fold loss of affinity (Inositol 1,4,5-trisphosphate-gated calcium channel ITPR1, IP3-binding core (Itpr1, Rattus norvegicus, UniProt P29994, R504Q); binding, 3H-IP3 competition; IP3-binding core; relative to: R504Q over wild type): 35 fold
CCc1cc(C)nc2c(CC(=O)N(CC)CC)c(-c3ccc(OCC[18F])cc3)nn12 — k3 rate constant (Tspo (Rattus norvegicus, UniProt P16257); two-tissue compartment model; rat C6 glioma model, brain; 60 min dynamic PET): 0.727 ± 0.161 min⁻¹
O=C(CCn1c2ccccc2c2ccncc21)N(c1ccc(F)cc1)c1ccc(F)cc1 — maximum fold increase (Proteasome subunit alpha type-2/Proteasome subunit alpha type-6, 20S proteasome (Homo sapiens, UniProt P25787+P60900); proteolysis, activator, fluorogenic peptide; purified 20S proteasome; up to 30 µM, with: Suc-LLVY-AMC, Z-LLE-AMC, Boc-LRR-AMC; relative to: vehicle): 12 ± 2.6
COC(=O)[C@@H](CS)N1C(=O)c2ccc(N(C)C)cc2C1=O — fluorescence increase (VIM-2 (Escherichia coli, UniProt Q5U7L7); 10 µM, with: 3 equivalents protein, 10 µM ZnSO4): 6.9 fold
CC(C)C[C@H](NC(=O)[C@H](CC(N)=O)NC(=O)[C@H](CCC(=O)O)NC(=O)[C@@H](N)CS)C(=O)O — remaining activity (PPO3; enzyme activity, inhibitor; 200 µM): 38%
NS(=O)(=O)c1ccc(N2N=C(C(F)(F)F)CC2c2ccc(F)cc2F)cc1 (stereo not shown) — IC20 (Prostaglandin G/H synthase 1 (Canis lupus familiaris, UniProt Q8HZR1); enzyme activity in cells, inhibitor): 17.6 µM
COc1ccc2[nH]c(-c3cccc(F)n3)nc2c1 — activity class (Core-binding factor subunit beta, with RUNX1 Runt domain (Homo sapiens, UniProt Q13951); protein binding, inhibitor, FRET; concentration not given, with: Runt domain): inactive
O=C1CCC(N2C(=O)c3cccc(NCCOCCOCCOCCOCCOCCOCCOCCNCCNc4nonc4/C(=N/O)Nc4ccc(F)c(Br)c4)c3C2=O)C(=O)N1 (stereo not shown) — Dmax (IDO1 (Homo sapiens, UniProt P14902); degrader, western blot; HeLa; 24 h, with: IFN-γ 5 ng/mL): 93%
CN[C@@H](C)C(=O)N[C@H]1CN(C(=O)Cc2ccccc2)CC[C@H]2CC[C@@H](C(=O)NCc3ccc(C(C)C)cc3)N2C1=O — selectivity ratio (Baculoviral IAP repeat-containing protein 2, BIR3 domain (BIRC2, Homo sapiens, UniProt Q13490); fluorescence polarization; relative to: Ki XIAP over Ki cIAP1): 444
C[n+]1c(C=Cc2ccc(O)c(C=Cc3sc4ccccc4[n+]3C)c2)sc2ccccc21 — binding (T1, dsDNA; fluorescence enhancement): binds weakly
N=C(N)NCCC[C@H](N)C(=O)N[C@@H](CC(=O)N[C@@H](Cc1ccccc1)C(=O)N[C@@H](CC(=O)O)C(=O)O)c1cccc2ccccc12 — displacement concentration (ERBB2 (Homo sapiens, UniProt P04626); binding; BT-474; 45 min, 37 °C, with: FITC-5 50 µM): ≤ 5 µM
FC(F)(F)c1ccc2[nH]c(C(F)(F)F)nc2c1 — binding (DUSP3 (Homo sapiens, UniProt P51452); ligand-observed 19F NMR; concentration not given, with: DUSP3 4 or 8 µM): active
C[C@@H]1O[C@@H](OC[C@H]2O[C@@H](Oc3c(-c4ccc(O)cc4)oc4cc(O)cc(O)c4c3=O)[C@H](O)[C@@H](O)[C@@H]2O)[C@H](O)[C@H](O)[C@H]1O — induction (Peroxisome proliferator-activated receptor gamma (Rattus norvegicus, UniProt O88275); reporter gene, agonist, luciferase; HepG2; 50 µg/mL): 2.31
COc1ccc(-c2ccc(C(=O)N(C)CCO)cc2)c(OC)c1 — signal attenuation (DNA dC->dU-editing enzyme APOBEC-3B, C-terminal domain (Homo sapiens, UniProt Q9UH17); binding, 1H CPMG NMR; 20 µM protein): 49.7 ± 2.1%

Some of these lines once more:
Nc1ncnc2c1ncn2[C@@H]1O[C@H](CO)[C@@H](O[C@H]2O[C@H](CO)[C@@H](OP(=O)(O)O)[C@H](OP(=O)(O)O)[C@H]2O)[C@H]1O — fold loss of affinity (Inositol 1,4,5-trisphosphate-gated calcium channel ITPR1, IP3-binding core (Itpr1, Rattus norvegicus, UniProt P29994, R504Q); binding, 3H-IP3 competition; IP3-binding core; relative to: R504Q over wild type): 35 fold
CCc1cc(C)nc2c(CC(=O)N(CC)CC)c(-c3ccc(OCC[18F])cc3)nn12 — k3 rate constant (Tspo (Rattus norvegicus, UniProt P16257); two-tissue compartment model; rat C6 glioma model, brain; 60 min dynamic PET): 0.727 ± 0.161 min⁻¹
O=C(CCn1c2ccccc2c2ccncc21)N(c1ccc(F)cc1)c1ccc(F)cc1 — maximum fold increase (Proteasome subunit alpha type-2/Proteasome subunit alpha type-6, 20S proteasome (Homo sapiens, UniProt P25787+P60900); proteolysis, activator, fluorogenic peptide; purified 20S proteasome; up to 30 µM, with: Suc-LLVY-AMC, Z-LLE-AMC, Boc-LRR-AMC; relative to: vehicle): 12 ± 2.6
COC(=O)[C@@H](CS)N1C(=O)c2ccc(N(C)C)cc2C1=O — fluorescence increase (VIM-2 (Escherichia coli, UniProt Q5U7L7); 10 µM, with: 3 equivalents protein, 10 µM ZnSO4): 6.9 fold
